Measured values pooled from the literature.
Lines come from different studies, so protocols differ.

O=C1O[C@H]([C@@H](O)CO)C(O)=C1O
inhibition (DPPH scavenging, absorbance; 120 µg/mL): 64.3%

CC(=NNC(=O)c1ccncc1)c1ccc(Nc2nnc(-c3ccc(Cl)cc3)c3ccccc23)cc1
viability (HepG2; cell growth or viability, MTT; 78 nM, 24 h): 96.8%

Cc1cccc(N(O)N=Nc2ccc(S(=O)(=O)Nc3nccs3)cc2)c1
inhibition (DPPH scavenging, absorbance; 120 µg/mL): 30.5%

COc1cc(-c2nc3ccccc3c(=O)n2Nc2ccc([N+](=O)[O-])cc2[N+](=O)[O-])ccc1OCc1cn(CC(=O)Nc2ccccc2[N+](=O)[O-])nn1
inhibition (DPPH scavenging, absorbance; 100 µM): 22.1%

O=C(Nc1ccc(-c2ccc3ncn(Cc4ccccc4)c(=O)c3c2)cn1)C1CCC1
IC50 (HCC827; cell growth or viability, CCK-8; 72 h): > 10 µM

CC(=O)Nc1ccc(Oc2nnc(-c3ccc(Cl)cc3)c3ccccc23)cc1
cell death (HepG2; cell growth or viability, MTT; 78 nM): 0.622%

O=C(O)c1ccc(O)cc1
inhibition (Helicobacter pylori; microbial growth, broth dilution; 3.9 µg/mL): 100%

Cc1cc(NS(=O)(=O)c2ccc(N=NN(O)c3ccccc3)cc2)no1
inhibition (DPPH scavenging, absorbance; 120 µg/mL): 30%

COc1ccc(-c2cc(=O)c3c(O)cc(O[C@@H]4O[C@H](CO)[C@@H](O)[C@H](O)[C@H]4O)cc3o2)cc1O
inhibition (Helicobacter pylori; microbial growth, broth dilution; 0.48 µg/mL): 73.9%

CC#CCn1cnc2ccc(-c3ccc(NC(=O)CCCC)nc3)cc2c1=O
IC50 (HCC827; cell growth or viability, CCK-8; 72 h): > 10 µM

CC(=NNC(=O)c1ccccc1)c1ccc(Nc2nnc(-c3ccc(Cl)cc3)c3ccccc23)cc1
cell death (HepG2; cell growth or viability, MTT; 0.625 µM): 51.3%

Cc1cc(C)c(C#N)c(SCC(=O)c2ccsc2)n1
EC50 (Trypanosoma brucei; parasite growth, resazurin): > 64 µM

CC(=NNC(=O)c1ccc(N)cc1)c1ccc(Nc2nnc(-c3ccc(Cl)cc3)c3ccccc23)cc1
cell death (HepG2; cell growth or viability, MTT; 1.25 µM): 54%

O=C1O[C@H]([C@@H](O)CO)C(O)=C1O
inhibition (DPPH scavenging; 62.5 µg/mL): 56.1%

Cc1ccc(N(O)N=Nc2ccc(S(=O)(=O)Nc3onc(C)c3C)cc2)cc1
inhibition (DPPH scavenging, absorbance; 180 µg/mL): 29.4%

O=C(Nc1ccc(Oc2nnc(-c3ccc(Cl)cc3)c3ccccc23)cc1)c1cccc([N+](=O)[O-])c1
viability (HepG2; cell growth or viability, MTT; 0.312 µM, 24 h): 99.6%

CN(Cc1ccc(C(C)(C)C)cc1)Cc1cccc2ccccc12
inhibition zone (Trichophyton mentagrophytes; microbial growth, disc diffusion; ATCC18748; 0.008 µg/mL, 72 h): 44.2 mm

Cc1noc(NS(=O)(=O)c2ccc(N=NN(C)O)cc2)c1C
inhibition (DPPH scavenging, absorbance; 20 µg/mL): 5.3%

O=C(Nc1ccc(Oc2nnc(-c3ccc(Cl)cc3)c3ccccc23)cc1)c1ccccc1
cell death (HepG2; cell growth or viability, MTT; 2.5 µM): 96.6%

Cc1cc(C)c(C#N)c(SCC(=O)c2ccccc2O)n1
EC50 (Trypanosoma brucei; parasite growth, resazurin; RHODESIENSE): 62.5 µM

Cc1cc(NS(=O)(=O)c2ccc(N=NN(C)O)cc2)no1
inhibition (DPPH scavenging, absorbance; 20 µg/mL): 25.7%

CC(=NNC(=O)c1ccccc1O)c1ccc(Nc2nnc(-c3ccc(Cl)cc3)c3ccccc23)cc1
cell death (HepG2; cell growth or viability, MTT; 10 µM): 95.3%

COC(=O)c1ccc(O)cc1
inhibition (Helicobacter pylori; microbial growth, broth dilution; 62.5 µg/mL): 100%

For quick reference, copied from above:
Cc1cccc(N(O)N=Nc2ccc(S(=O)(=O)Nc3nccs3)cc2)c1
inhibition (DPPH scavenging, absorbance; 120 µg/mL): 30.5%

COc1cc(-c2nc3ccccc3c(=O)n2Nc2ccc([N+](=O)[O-])cc2[N+](=O)[O-])ccc1OCc1cn(CC(=O)Nc2ccccc2[N+](=O)[O-])nn1
inhibition (DPPH scavenging, absorbance; 100 µM): 22.1%
